# Published values from different studies.
# Parts stem from different laboratories: compare values within a part only. Changes are numbered by the printed parent chain.

# Block 1 — technique: RNA Bind-n-Seq; form: RNA; sample: in vitro; concentration: not given; relative to: input RNA pool; reading: higher = stronger binding
# Target: RING finger protein unkempt homolog, zinc fingers 1-6, GST-SBP tag (UNK, Homo sapiens, UniProt Q9C0B0, residues 30-357)
# Sequence of UniProt Q9C0B0 (30-357, looked up): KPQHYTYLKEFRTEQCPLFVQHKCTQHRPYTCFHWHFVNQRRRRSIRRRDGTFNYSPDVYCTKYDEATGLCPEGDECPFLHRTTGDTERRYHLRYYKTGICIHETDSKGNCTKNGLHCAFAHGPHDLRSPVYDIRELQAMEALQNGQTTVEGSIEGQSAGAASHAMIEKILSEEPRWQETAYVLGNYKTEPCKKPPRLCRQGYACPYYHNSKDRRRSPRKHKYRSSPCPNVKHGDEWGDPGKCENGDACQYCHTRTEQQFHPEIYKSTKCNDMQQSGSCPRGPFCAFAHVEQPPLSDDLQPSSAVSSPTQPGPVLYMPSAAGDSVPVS
# Setting: RNA with constant flanks, human-mouse chimeric sites, ends assumed
# Shared flanks, not repeated: GGGAGUUCUACAGUCCGACGAUC … CAACAGAGGAUUGAGCAUCA
Sequence,bound/input enrichment [ratio]
AAAGCCCAAGUAUUUUGAAAAAACUCGAACAGAUUUGUCAAGGGUAACCAGCUUGGAGUCUAGCAACUUGCCAAUGUGUUUACCAAUCUGGGGGCUUUGUUUUUCUUUCUUCUUUCAAAU,0.224
GUUGCCAGCUUCCGGUUCCGUUGGGCUCGGUUCUCUCAGUGCUACGUUGUCUCUACGCUCUCAAUCCCGGUUGGGUAAAACAUGGAUCAGGUAAUGCAGUUUGUGGAGCCCAGCCGGCAG,0.105
CUUAAUGUUAAUAUUUUUAAAGGAAGCAAGCUAAAAUGUCUGCUUUUGGUACAACACGCAUUAAUAAAAGGUUAAGUUUUGUUUUCCACUGAAGUACGUAAUACUUACUCAGAAAAAAAC,0.185
UCUUUAAAAAAAAAAUUACCUUUUCUGACAGUGCUUUAUGGAGUAAAGAUCCACGUUCAAGCUCAAAGAGCAAAGGCUUUGCACGGAUCUGAUGAUGCUGAUGAAGAAAGAUUUCUGAGA,0.181
GAUAAGAAAAGCUUGUUGGAGACCCGCUUGCACAUCACUGGCAGAGACCUGAGGUGUCAAAUAGCUGAAACUUUCGGAUUUCAAGAAAAUUACAUCAAGAUCGUAAUAAAUAAGAAACAG,0.354
GAUCUCGGGCCCUCCCCUCUAGUGACCUUUCGUAUAGUCACUGCUUCUGCAUCAGAUACUUUCAGCUGCAACUCCCUACUGGGUGGGGCACCCAUUUCAGGCAGAAGGUUUUGGUACCCU,0.446
CGCUUGGAUGAGGCGGGUGUUACUGAUGAAGUGCUGGAUUCUGCCAUGCAAGCCUUCCUUCUGGAGGUCAUUGUUAAACAUGGGGAGCCGGCACCUUAUUUAUGUAACAAAGAUCCGUUU,0.101
CCCCACAACCAUUUGCAGGUCUGGAACUGCACUCUCUUUUUUAAAAAACAUGUAUACAUUUUAGGGCUGUAGAUUUAUUUUCCUGGUUUCUUUUCCAAUUGCUGACUUUUGAGCACAGAA,2.24

# Block 2 — technique: EMSA with sequencing; form: double-stranded DNA, one strand shown; sample: in vitro; concentration: 10 and 20 nM; relative to: negative control set to 0; reading: higher = stronger binding
# Target: Hepatocyte nuclear factor 3-alpha (Foxa1, Mus musculus, UniProt P35582, residues 1-468, full length assumed)
# Sequence of UniProt P35582 (whole entry, looked up): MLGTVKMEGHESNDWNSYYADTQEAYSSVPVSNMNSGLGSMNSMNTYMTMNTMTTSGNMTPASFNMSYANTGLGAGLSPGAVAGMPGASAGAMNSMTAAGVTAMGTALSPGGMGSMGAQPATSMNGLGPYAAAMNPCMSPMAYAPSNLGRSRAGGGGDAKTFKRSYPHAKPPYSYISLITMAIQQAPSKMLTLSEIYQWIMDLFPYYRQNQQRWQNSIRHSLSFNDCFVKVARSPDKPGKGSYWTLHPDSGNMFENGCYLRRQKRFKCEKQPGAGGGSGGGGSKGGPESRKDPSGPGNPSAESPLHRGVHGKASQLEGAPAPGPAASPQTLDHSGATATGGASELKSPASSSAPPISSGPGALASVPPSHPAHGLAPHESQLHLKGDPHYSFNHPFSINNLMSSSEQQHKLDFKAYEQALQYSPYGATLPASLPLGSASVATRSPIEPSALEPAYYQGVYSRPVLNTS
# Setting: whole designed probe, mean of two concentrations, ends assumed
# Shared flanks, not repeated: GTGAGCGGTGCCCATTGATGGGGAAC … TTTCACTGGGATCGTGGGGAC
Sequence,normalised bound fraction [ratio]
TCTGGACAACATGTCTAGTGTAAACTTTCCTCTAAATAATAAATTTGTAGTTCAGCAACAAGCTAGACATCTCTGGGTAACATTTCCACCTTCTTGTTTACATTGTATGTCCAGCCTTTGGAAAAGCGTTTGGTAAAATATAAACTGGTTGGAAAAAAAATTAAAATATCACCAACACTATTTTTAAAAGAGA,0.484
ATCTTCCCCCTCTTCCTTGCCCCACCAGCTCACCTACGGGGGTTATTTGCAGATAGGAAAATAAATAAAGCCGGCATTCGTTAACCCTCTTCTGGCGCAAACTGCTGTTTGCTCTGCATCTAACATGGTCCTTACGCGAGGCGTGGCTCCGGGAGAGCAAAGCACCGTGTCAGGCGCATGATCCGGGGTGGCC,0.357
ATCTTCCCCCTCTTCCTTGCCCCACCAGCTCACCTTCCCGGGTTATTTGCACAAAGGAAAATAAATAAAGCCGGCATTCGTTAACCCTCTTCTGGCGCAAACTGCTGTTTGCTCTGCATCTAACATGGTCCTTACGCGACGCCAGGCTCCGGGAGAGCAAAGCACCGTGTCAGGCGCATGATCCGGGCTCGCC,0.378
ATCTTCCCCCTCTTCCTTGCCCCACCAGCTCACCTACGGGGGTTATTTGCAGATAGGAAAATAAATAAAGCCGGCATTCGTTAACCCTCTTCTGGCGCAAACTGCTGTTTGCTCTGGATCTAACATGGTCCTTTGGCGAGGCGTGGCTCCGGGAGAGCAAAGCACCGTGTCAGGGCCATGATCCGGGCTCGCC,0.343
GGACACAGCCAGAGGCCATGAGTGCTCAGGAGTGCCATAAACTGTGATTTTGAGACTGATAAGGCCAGGCTAAATAGCCTGGGTGTGTCTTGTTGTTTGCCTTTTTATATTTGAGGCCTATAAAAAAATAGTGAGAAAATAGCAAGATGCCCAGGAGACAGGTGATCTGATTCAGCCAGGGGGTGGGAGGTGG,0.0714
CTAAAGATGTTTTTTTCTTTTTAAATAAAGTAGATGTGGAGTTTTATCAAATTTTTTTCTGCACCTATTGATGGTTGTAATTTTTTTCAATAAGTAAACATGGTAAGCTAATTGATTTTCTTGTGTAAAACCATCTTTAACATTCCTGAGGTAAACACTACTGGATTTTTTTGCTAATATTTTGCTAATGGTC,0.397

# Block 3 — technique: universal PBM; form: double-stranded DNA, one strand shown; sample: in vitro; concentration: not given; reading: higher = stronger binding
# Target: Sal-like protein 4, full length isoform B (SALL4, Homo sapiens, UniProt Q9UJQ4-2, residues 1-616)
# Setting: 8-mer, flanks averaged, mean of replicates
Sequence,E-score
AGAGTAAA,0.134
GACCGGGA,-0.35
CTCAAGGA,-0.0228
AAAGCGTC,-0.117
CCACTACA,-0.0176
GGTCACAA,-0.195
ACCGGCGC,-0.272
AAGCAGAC,-0.181
GATTTGTA,0.161
ATTGTTTC,0.175
AGTTGGCG,-0.0831
CAGGAATG,-0.0241
CTGGCATC,-0.252
CCGCATCA,-0.155
AAGGATGC,-0.0531

# Block 4 — technique: protein binding microarray; form: double-stranded DNA, one strand shown; sample: in vitro; concentration: not given; relative to: not given; reading: higher = stronger binding
# Target: Histone acetyltransferase KAT6A, winged helix 2, GST fusion (KAT6A, Homo sapiens, UniProt Q92794, residues 85-181)
# Setting: 8-mer, flanks averaged, mean of 2 arrays, mostly near background
# Target sequence (chain): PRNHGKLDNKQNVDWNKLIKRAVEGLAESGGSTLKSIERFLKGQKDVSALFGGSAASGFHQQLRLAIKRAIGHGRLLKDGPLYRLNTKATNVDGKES
Sequence,E-score
CTCAATGC,-0.058
AATCTTGT,0.0662
AACGTGGA,-0.124
ATTCGACA,-0.0295
CTCGTCCC,0.0659
CGCGGAGA,0.268
ACTCCGGG,0.0956
GAGGGGCA,0.122
CGGTCTGA,0.0914
ATTACGGC,0.0495
GACCAAGC,-0.00891
ATGATACC,0.135
CTCCTGTC,0.117

# Block 5 — technique: protein-binding microarray; form: double-stranded DNA, one strand shown; sample: in vitro; concentration: 250 nM; setting: 60-bp whole probe; added: salmon DNA 0.4 mg/ml; relative to: random background probes; reading: higher = stronger binding
# Target: Interferon regulatory factor 7, full length, phosphomimetic (IRF7, Homo sapiens, UniProt Q92985, residues 1-503, S101K/S471D/S472D/S475D/S476D/S477D/S483D/S484D/S487D)
# Shared flanks, not repeated: GCCTAGCAC … GTGCTAGGTCTTGATTCGCTTGACGCTGCTG
# Construct (chain): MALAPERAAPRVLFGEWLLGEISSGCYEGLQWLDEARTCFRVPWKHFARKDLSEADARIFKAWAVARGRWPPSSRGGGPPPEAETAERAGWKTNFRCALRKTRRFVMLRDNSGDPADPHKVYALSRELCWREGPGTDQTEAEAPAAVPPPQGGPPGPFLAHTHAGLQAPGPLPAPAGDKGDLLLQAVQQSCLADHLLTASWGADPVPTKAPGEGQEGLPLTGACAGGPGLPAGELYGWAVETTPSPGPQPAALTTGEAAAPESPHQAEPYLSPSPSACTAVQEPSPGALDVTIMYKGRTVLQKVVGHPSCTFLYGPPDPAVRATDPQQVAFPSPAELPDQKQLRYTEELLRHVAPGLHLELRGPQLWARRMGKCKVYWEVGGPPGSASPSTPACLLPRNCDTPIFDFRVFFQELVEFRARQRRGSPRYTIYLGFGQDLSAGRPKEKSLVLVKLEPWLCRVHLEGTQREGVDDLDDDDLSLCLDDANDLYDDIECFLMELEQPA
Sequence,log fluorescence
TCACTTTCAGTTCTCCCACT,3.28 z-score
TTAGGTTACGGTCTCGGTTA,1.57 z-score
TCAAAATTTTTTTTCTAACT,0.109 z-score
CTTTAACTCATTCTCTGCTT,0.699 z-score
GACGGTCTCCTTTCCCTGAC,0.609 z-score
TCAGGTTTCCTTTTCCTTTA,6.94 z-score
TAAGATCTCAGTCTCGATTA,1.72 z-score
GACGGACTGGAACTGGGGAC,-0.347 z-score
CTCTGCTTGGGTCTGGGTAT,-0.452 z-score
TTAGGTATCGGACTGCGTTA,0.616 z-score
GGGATGGTGGGGCTCCTCCT,-0.408 z-score
ACCTGTTCCCTCATCAGGCT,1.25 z-score
GACGGTATCCGTTTCCTGAC,1.89 z-score
GACGGTATCGGTTTCGGGAG,6.07 z-score
TTAGGTTTCGGTTTCTGTTA,15.2 z-score
TCAAGTTTCTCCTTTGTACT,2.02 z-score
TCAATTTCTGTTTTTGCACT,1.54 z-score
TTAGGACTGCTTATCCTTTA,-0.0201 z-score

# Block 6 — technique: DHFR PCA, deep sequencing; sample: yeast; added: (+)-ABA 0.0091 µM; relative to: wild-type fitted maximum; reading: higher = stronger binding
# Target: ABI1, truncated, D143A, DHFR fusion (Arabidopsis thaliana)
# Setting: methotrexate growth selection, single substitutions
# Parent: PYL1, truncated, DHFR fusion (Arabidopsis thaliana); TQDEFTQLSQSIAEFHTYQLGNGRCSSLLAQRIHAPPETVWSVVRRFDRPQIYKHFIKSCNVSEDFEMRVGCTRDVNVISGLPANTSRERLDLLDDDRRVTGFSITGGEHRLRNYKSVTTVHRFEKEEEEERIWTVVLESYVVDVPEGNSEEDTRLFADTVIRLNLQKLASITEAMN; partner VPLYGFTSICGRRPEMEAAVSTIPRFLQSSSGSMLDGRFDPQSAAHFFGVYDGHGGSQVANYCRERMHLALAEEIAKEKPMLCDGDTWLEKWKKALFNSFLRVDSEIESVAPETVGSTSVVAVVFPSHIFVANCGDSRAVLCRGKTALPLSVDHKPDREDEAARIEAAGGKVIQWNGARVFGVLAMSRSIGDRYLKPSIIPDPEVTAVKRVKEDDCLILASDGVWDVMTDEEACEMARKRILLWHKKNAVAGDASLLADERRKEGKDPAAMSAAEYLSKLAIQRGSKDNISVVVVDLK
Substitution,relative binding score [%]
A35M,-3.4
N165V,0.627
S63R,19.5
N77G,16
E127H,50.8
P50I,-2.02
S117D,2.15
K116Y,0.267
D144V,3.3
I12V,7.07
P37S,2.67
T120W,-4
Q19D,52.8
D95E,-2.53
Q51C,-0.192
R74L,-3.55
